Measured values gathered from unrelated publications.
Lines come from different studies, so protocols differ. ± marks the error that the study gave.

Cc1ccc(/C=N/N=C(\S)Nc2cccc(S(=O)(=O)N(C)C)c2)o1  AC50 (Mus musculus; gene silencing, high-content imaging; LDR reporter GFP cells; retest run 2): 12.6 µM
COC1OC(C)C(OS(=O)(=O)O)C(OC2OC(C)C(OS(=O)(=O)O)C(OS(=O)(=O)O)C2OS(=O)(=O)O)C1OS(=O)(=O)O (stereo not shown)  prothrombin time prolongation (human plasma; 128 µg/mL; baseline: control): 0.98 fold
CC[n+]1cccc2cc(/C=N/NC(=O)c3cccc(C(=O)N/N=C/c4ccc5c(ccc[n+]5CC)c4)c3)ccc21  ΔTm (hp2 hairpin duplex DNA; FRET melting; 1 µM): 0.9 ± 0.1 °C
Nc1ncc(-c2cc(-c3cnn(CC(F)(F)F)c3)ncc2F)nc1C(=O)NC1CNCC(F)C1 (stereo not shown)  remaining binding (EIF2AK1; KINOMEscan; 1 µM; baseline: DMSO control): 100%
N=C(S)N/N=C/c1ncc(C(F)(F)F)cc1Cl  EC50 (Mus musculus; gene silencing, high-content imaging; LDR reporter GFP cells; retest, mean of two runs): 12.6 µM
C[n+]1ccc(/C=N/NC(=O)c2cccc(C(=O)N/N=C/c3cc[n+](C)c4ccccc34)c2)c2ccccc21  ΔTm (MYC parallel G4 DNA; FRET melting; 1 µM, DNA 0.2 µM): 5.1 ± 0.1 °C
Cc1ncsc1-c1ccc(C(C)NC(=O)C2CC(O)CN2C(=O)C(NC(=O)CCCCCCCCCCN2CCCC(Nc3ncc(Cl)c(Nc4ccccc4S(=O)(=O)C(C)C)n3)C2)C(C)(C)C)cc1 (stereo not shown)  log2 fold change (22Rv1; RNA-seq, measured: ZIK1 mRNA; concentration not given; baseline: DMSO): -1.28
COC1CN([C@H]2CC[C@H]([C@@]3(C)Oc4c(Cl)cc(C(=O)NCc5c(SC)cc(C)[nH]c5=O)c(C)c4O3)CC2)C1  log2 fold change (RNA-seq, measured: DAB2IP mouse homolog; mouse, HT-1376 xenograft, whole blood; dose not given; baseline: vehicle): 0.159
C[n+]1cc(/C=N/NC(=O)c2cc(C(=O)N/N=C/c3cc4ccccc4[n+](C)c3)ncn2)cc2ccccc21  ΔTm (MYC parallel G4 DNA; FRET melting; 1 µM, DNA 0.2 µM, together with: duplex DNA competitor 10 µM): 3.3 ± 0.2 °C
COc1ccc(NC(=O)CSc2nc3c(oc4ccccc43)c(=O)n2Cc2ccco2)cc1Cl  Emax (Mus musculus; gene silencing, high-content imaging; LDR reporter GFP cells; 30 h, confirmation, mean of two runs): 37%
C=C(NC(=O)c1csc(-c2nc3c(cc2O)-c2nc(cs2)C(=O)NC(C(C)O)C(=O)NC(=C(C)OC)c2nc(cs2)C(=O)NC2c4nc(cs4)C(=O)NC(COC(=O)c4c5c6c(cccc6n4O)COC(=O)C(OC4CC(C)(O)C(N(C)C)C(C)O4)C2OC5)c2nc-3cs2)n1)C(N)=O (stereo not shown)  lung bacterial load (Streptococcus pneumoniae; -25, immunocompromised mice, lung infection; 4 mg/kg/day, twice daily, 24 h post-dose): 6.61 log CFU/g
CC[n+]1cccc2cc(/C=N/NC(=O)c3ccc4ccc5ccc(C(=O)N/N=C/c6ccc7c(ccc[n+]7CC)c6)nc5c4n3)ccc21  ΔTm (MYC parallel G4 DNA; FRET melting; 1 µM, DNA 0.2 µM, together with: duplex DNA competitor 10 µM): 19.3 ± 0.3 °C
C=CC(=O)Nc1cccc(Cn2ncc3cnc(Nc4cnn(CCOC)c4)nc32)c1  percent of control (PLK3 human; binding, KINOMEscan; 100 nM; lower = stronger binding): 100%
COC1OC(C)C(OC2OC(C)C(OS(=O)(=O)O)C(OC3OC(C)C(OS(=O)(=O)O)C(OS(=O)(=O)O)C3O)C2O)C(OS(=O)(=O)O)C1O (stereo not shown)  prothrombin time (human plasma; 128 µg/mL): 15.2 ± 0.3 s
O=C(N/N=C/c1cc[n+](CC2CC2)c2ccccc12)c1cccc(C(=O)N/N=C/c2cc[n+](CC3CC3)c3ccccc23)c1  ΔTm (hp2 hairpin duplex DNA; FRET melting; 1 µM, together with: ds26 10 µM): 0.7 ± 0.1 °C
CNS(=O)(=O)Nc1nccc(Cc2c(C)c3ccc(Oc4ncccc4F)cc3oc2=O)c1F  IC50 (MOLM-13; cell viability; 7 days): 0.0298 µM

For quick reference, copied from above:
N=C(S)N/N=C/c1ncc(C(F)(F)F)cc1Cl  EC50 (Mus musculus; gene silencing, high-content imaging; LDR reporter GFP cells; retest, mean of two runs): 12.6 µM
C[n+]1ccc(/C=N/NC(=O)c2cccc(C(=O)N/N=C/c3cc[n+](C)c4ccccc34)c2)c2ccccc21  ΔTm (MYC parallel G4 DNA; FRET melting; 1 µM, DNA 0.2 µM): 5.1 ± 0.1 °C
